Experimental data from different studies.
Compare with care: the assays were run in different laboratories. Numbers after ± are the reported error.

| SMILES | organism | test | test system | setting | MIC |
| --- | --- | --- | --- | --- | --- |
| CN[C@@H]1[C@H](O)[C@H](NC)[C@H]2O[C@]3(O)[C@H](O[C@@H]2[C@H]1O)O[C@H](C)C[C@@]3(O)CNCc1ccccc1 | Streptococcus pneumoniae |  | R6 drug sensitive |  | 6 µg/mL |
| CC(C)C[C@@H]1NC(=O)[C@H](C)NC(=O)[C@H](C)NC(=O)[C@H](NC(=O)[C@H](CO)NC(=O)[C@@H](CCCCN)NC(=O)[C@@H](CC(C)C)NC(=O)[C@@H](N)Cc2ccccc2)[C@H](C(N)=O)OC1=O | Bacillus subtilis Staphylococcus epidermidis |  | ATCC 14990 | tested as TFA salt | 4 µg/mL |
| CC(C)C[C@H](NC(=O)CNC(=O)[C@H](C)NC(=O)[C@H](CCCNC(=N)N)NC(=O)[C@H](Cc1c[nH]cn1)NC(=O)CNC(=O)CN)C(=O)N[C@@H](CCC(N)=O)C(=O)N[C@@H](Cc1ccccc1)C(=O)N1CCC[C@H]1C(=O)N[C@H](C(=O)NCC(=O)N[C@@H](CCCNC(=N)N)C(=O)N[C@H](C(=O)N[C@@H](Cc1c[nH]cn1)C(=O)N[C@@H](CCCNC(=N)N)C(=O)N[C@@H](CC(C)C)C(=O)N[C@@H](CC(C)C)C(=O)N[C@@H](CCCNC(=N)N)C(=O)N[C@@H](CCCCN)C(N)=O)C(C)C)C(C)C | Enterobacter aerogenes |  | ATCC 13048 | 18 to 20 h | > 32 µM |
| C[N+]1=C2C(c3ccc(Cl)cc3)=[N+]([O-])c3ccccc3N2CCC1 | Prevotella intermedia/nigrescens |  | ATCC 25611 |  | 16 µg/mL |
| C[C@@H](c1ccn(Cc2ccc(Cl)cc2Cl)n1)[C@](O)(Cn1cnnn1)c1ccc(F)cc1F | Candidozyma auris | microbial growth | 887 | 24 h, drug-resistant strain, clinical isolate | 64 µg/mL |
| CC[C@H](C)[C@H](NC(=O)[C@H](CCCN)NC(=O)[C@H](CC(N)=O)NC(=O)[C@H](Cc1c[nH]c2ccccc12)NC(=O)[C@H](Cc1ccccc1)NC(=O)[C@H](CCCN)NC(=O)[C@H](CCCCNC(=N)N)NC(=O)[C@H](CC(C)C)NC(=O)[C@H](Cc1c[nH]c2ccccc12)NC(=O)[C@H](CCCN)NC(=O)[C@H](CCCCNC(=N)N)NC(=O)[C@H](CC(C)C)NC(=O)CNC(C)=O)C(=O)N[C@@H](CCCN)C(=O)N[C@@H](CCCCNC(=N)N)C(N)=O | Citrobacter freundii | bacterial growth, broth microdilution | multidrug-resistant |  | 3.12 µM |
| O=C(/C=C/CI)O[C@@H]1COC(=O)C1 | Vibrio harveyi |  | BB120 |  | 105 µM |
| C=C(NC(=O)C(=C)NC(=O)c1csc(C2=NC3c4csc(n4)C4NC(=O)c5csc(n5)C(C(C)(O)C(C)O)NC(=O)C5CSC(=N5)C(=CC)NC(=O)C(C(C)O)NC(=O)c5csc(n5)C3(CC2)NC(=O)C(C)NC(=O)C(=C)NC(=O)C(=CC)NC(=O)C(C(C)CC)NC2C=Cc3c(C(C)O)cc(nc3C2O)C(=O)OC4C)n1)C(N)=O (stereo not drawn) | Bacillus sp. | broth microdilution | ATCC 27859 | 18 h, 37 °C | 0.11 µg/mL |
| [O-][N+]1=C(c2ccc(Cl)cc2)C2=NCCCN2c2ccccc21 | Prevotella intermedia/nigrescens |  | ATCC 25611 |  | 1 µg/mL |
| CC[C@H](C)[C@H](NC(=O)[C@H](C)NC(=O)CNC(=O)[C@@H](N)CCSC)C(=O)N[C@@H](C)C(=O)N[C@@H](CCCCN)C(=O)N[C@@H](CC(C)C)C(=O)N[C@H](C(=O)N[C@@H](C)C(=O)N[C@@H](CCCCN)C(=O)N[C@@H](Cc1ccccc1)C(=O)NCC(=O)N[C@@H](Cc1c[nH]c2ccccc12)C(=O)N1CCC[C@H]1C(=O)N[C@@H](Cc1ccccc1)C(=O)N[C@H](C(=O)N[C@@H](CCCCN)C(=O)N[C@@H](CCCCN)C(=O)N[C@@H](Cc1ccccc1)C(=O)N[C@@H](Cc1ccc(O)cc1)C(=O)N[C@@H](CCCCN)C(=O)N[C@@H](CCC(N)=O)C(=O)N[C@H](C(=O)N[C@@H](CCSC)C(=O)N[C@@H](CCC(N)=O)C(=O)N[C@@H](CCCNC(=N)N)C(=O)N[C@H](C(=O)NCC(=O)N[C@@H](CCC(N)=O)C(=O)NCC(=O)N[C@@H](Cc1c[nH]c2ccccc12)C(=O)N[C@H](C(=O)N[C@H](C(=O)N[C@@H](CC(=O)O)C(=O)N[C@@H](CCC(N)=O)C(=O)N[C@H](C(=O)N[C@@H](CCC(=O)O)C(=O)N[C@@H](CCCCN)C(=O)N[C@@H](Cc1c[nH]c2ccccc12)C(=O)N[C@@H](CC(C)C)C(=O)N[C@@H](CCCCN)C(=O)N[C@@H](CCCNC(=N)N)C(=O)N[C@@H](Cc1c[nH]cn1)C(=O)O)[C@@H](C)CC)[C@@H](C)CC)[C@@H](C)O)[C@@H](C)CC)[C@@H](C)CC)[C@@H](C)CC)C(C)C | Bacillus subtilis subsp. subtilis |  | ATCC 23857 | 10 h | 10.5 ± 0.1 µM |
| CC1=C[C@@]2(C)C(=C(C)[C@H]3[C@@H]4C[C@H](C)C[C@H](C)[C@H]4[C@H]4Oc5ccc(cc5)C[C@]5(O)NC(=O)[C@]6(O[C@H]65)C(=O)[C@@H]2[C@@H]43)[C@H]1C | Staphylococcus aureus, Enterococcus faecalis, Enterococcus faecium | broth microdilution | drug-susceptible and drug-resistant | range over Gram-positive panel | 3.1 to 6.3 µM |
| CC[C@H](C)[C@H](NC(=O)[C@H](CO)NC(=O)[C@H](CO)NC(=O)[C@H](Cc1ccccc1)NC(=O)CN)C(=O)N[C@@H](Cc1ccccc1)C(=O)N[C@@H](CCCNC(=N)N)C(N)=O | Escherichia coli |  | ATCC 8739 | added: 150 mM NaCl | > 128 µM |
| COc1ccc(C2=[N+]([O-])c3ccccc3N3CC(C)(C)CN=C23)cc1 | Cutibacterium acnes | microbial growth |  |  | 16 µg/mL |
| O=C1CC(c2ccc(O)cc2)Oc2cc(O)cc([O][Ga+][O]c3cc(O)cc4c3C(=O)CC(c3ccc(O)cc3)O4)c21 (stereo not drawn) | Pseudomonas aeruginosa |  | PAO1 |  | ~0.5 µg/mL |
| CCCCCCCCCCCCC(=O)O.O=C1CCCC2C3CCCN4CCCC(CN12)C34 (stereo not drawn) | Cutibacterium acnes | bacterial growth, broth dilution | ATCC 6919 |  | inactive |
| C[C@@H](c1ccn(Cc2ccc(Cl)c(Cl)c2)n1)[C@](O)(Cn1cnnn1)c1ccc(F)cc1F | Candidozyma auris | growth | 888 drug-resistant isolate | 24 h, 30 °C, ≥50% inhibition | 16 µg/mL |
| CC(=O)NC1C(OC2OC(CC(O)C3OC(n4ccc(=O)[nH]c4=O)C(O)C3O)C(O)C(O)C2NC(=O)COCc2ccc(N3CCC(Oc4ccc(OC(F)(F)F)cc4)CC3)cc2)OC(CO)C(O)C1O (stereo not drawn) | Streptococcus salivarius |  | ATCC 7752 |  | > 50 µg/mL |
| CN(CCCN)[C@H](C(=O)O)[C@H](O[C@@H]1O[C@H](CN)[C@@H](O)[C@H]1O)[C@H]1O[C@@H](n2ccc(=O)[nH]c2=O)[C@H](O)[C@@H]1O | Clostridioides difficile | microbial growth | ATCC43596 |  | > 25 µg/mL |

Excerpt of the above:
| SMILES | organism | test | test system | setting | MIC |
| --- | --- | --- | --- | --- | --- |
| CC[C@H](C)[C@H](NC(=O)[C@H](C)NC(=O)CNC(=O)[C@@H](N)CCSC)C(=O)N[C@@H](C)C(=O)N[C@@H](CCCCN)C(=O)N[C@@H](CC(C)C)C(=O)N[C@H](C(=O)N[C@@H](C)C(=O)N[C@@H](CCCCN)C(=O)N[C@@H](Cc1ccccc1)C(=O)NCC(=O)N[C@@H](Cc1c[nH]c2ccccc12)C(=O)N1CCC[C@H]1C(=O)N[C@@H](Cc1ccccc1)C(=O)N[C@H](C(=O)N[C@@H](CCCCN)C(=O)N[C@@H](CCCCN)C(=O)N[C@@H](Cc1ccccc1)C(=O)N[C@@H](Cc1ccc(O)cc1)C(=O)N[C@@H](CCCCN)C(=O)N[C@@H](CCC(N)=O)C(=O)N[C@H](C(=O)N[C@@H](CCSC)C(=O)N[C@@H](CCC(N)=O)C(=O)N[C@@H](CCCNC(=N)N)C(=O)N[C@H](C(=O)NCC(=O)N[C@@H](CCC(N)=O)C(=O)NCC(=O)N[C@@H](Cc1c[nH]c2ccccc12)C(=O)N[C@H](C(=O)N[C@H](C(=O)N[C@@H](CC(=O)O)C(=O)N[C@@H](CCC(N)=O)C(=O)N[C@H](C(=O)N[C@@H](CCC(=O)O)C(=O)N[C@@H](CCCCN)C(=O)N[C@@H](Cc1c[nH]c2ccccc12)C(=O)N[C@@H](CC(C)C)C(=O)N[C@@H](CCCCN)C(=O)N[C@@H](CCCNC(=N)N)C(=O)N[C@@H](Cc1c[nH]cn1)C(=O)O)[C@@H](C)CC)[C@@H](C)CC)[C@@H](C)O)[C@@H](C)CC)[C@@H](C)CC)[C@@H](C)CC)C(C)C | Bacillus subtilis subsp. subtilis |  | ATCC 23857 | 10 h | 10.5 ± 0.1 µM |
| CN[C@@H]1[C@H](O)[C@H](NC)[C@H]2O[C@]3(O)[C@H](O[C@@H]2[C@H]1O)O[C@H](C)C[C@@]3(O)CNCc1ccccc1 | Streptococcus pneumoniae |  | R6 drug sensitive |  | 6 µg/mL |
| CC(=O)NC1C(OC2OC(CC(O)C3OC(n4ccc(=O)[nH]c4=O)C(O)C3O)C(O)C(O)C2NC(=O)COCc2ccc(N3CCC(Oc4ccc(OC(F)(F)F)cc4)CC3)cc2)OC(CO)C(O)C1O (stereo not drawn) | Streptococcus salivarius |  | ATCC 7752 |  | > 50 µg/mL |
